Experimental data collected from several papers.
Each line is one published result; not all experiments were run side by side. ± gives the spread as reported.

`CC(C)CCN(c1nc(C#N)nc(NC2COC2)n1)C(C)c1ccc(F)cc1` (stereo not shown) gave an AUC brain of 868 ng·h/g (CD-1 mouse female, brain; intraperitoneal, 10 mg/kg).
`Cc1cc2c(c(=O)o1)C=C1CCC(C(C)CNCc3ccc(O)cc3)CC1O2` (stereo not shown) has an AUC of 16500 ng·h/mL (mouse, plasma; intravenous, dose not given).
Under “AUC extrapolated fraction”, `CN1/C(=C/C=C/c2cc(-c3ccccc3)cc(-c3ccccc3)[o+]2)C(C)(C)c2ccccc21` is recorded as 4.38% (mouse CD1, male, plasma; intravenous, 1 mg/kg).
`COc1ccc(-c2ccn(CC[C@](C)(C(=O)NO)S(C)(=O)=O)c(=O)c2)c(F)c1` gave an AUC of 76300 ± 960 ng·h/mL (CF-1 mouse, female; subcutaneous, 300 mg/kg).
`N=C(N)NCCC[C@@H]1NC(=O)[C@H](Cc2c[nH]c3ccccc23)NC(=O)[C@@H](CC2CCCCC2)NC(=O)[C@@H]2CCCN2C(=O)[C@@H](NC(=O)CCc2ccccc2)CCCNC1=O` gave an AUC of 3470 ng·h/mL (C57BL/6J mouse, plasma; intravenous, 1 mg/kg, single dose).
For `CCC(=O)N(C)c1ccc(Cl)c(Cl)c1`, the AUC extrapolated was 3.96% (LC-MS/MS; mouse C57BL/6 female, plasma; intravenous, 2 mg/kg).
With `CC(C)CCN(Cc1ccc(F)cc1)c1nc(C#N)nc(N2CCOCC2)n1` the AUC brain was 119 ng·h/g (CD-1 mouse female, brain; intraperitoneal, 10 mg/kg).
The AUC of `CN(C)CCNC(=O)/C=C/[C@H](Cc1ccccc1)Nc1ccnc2cc(Cl)ccc12` is reported as 30.1 ng·h/mL (ICR mouse healthy, plasma; oral, 5 mg/kg).
The AUC of `CCc1nc(N)nc(N)c1C#C[C@H](C)c1cc(-c2cc(C)nc(C)c2)ccc1Cl` is reported as 2600 ng·h/mL (mouse, plasma; oral, 16 mg/kg).
`C=CC(=O)Nc1cc(Nc2nccc(-n3ccc4nc(OC)ccc43)n2)c(OC)cc1N(C)CCN(C)C` has an AUC of 28300 ng·h/g (BALB/c nude mouse, H1975 xenograft, tumour; oral, 60 mg/kg).
`Cc1cc(C)c(S(=O)(=O)N(CC(=O)O)c2ccc(Nc3ccnc(N4CCCC4)n3)cc2)c(C)c1` gave an AUC of 52200 ng·h/mL (BALB/c nude mouse HCT-116 xenograft, plasma; intraperitoneal, 100 mg/kg).
For `CCS(=O)(=O)c1ccccc1C(=O)N1CCN(c2nc3ccc(F)cc3s2)C[C@@H]1C`, the AUC was 181 ± 28 ng·h/mL (mouse, brain; oral, 3 mg/kg).
`CCCCCCCCCCCCCCCCCC(=O)Nc1ccn(C2OC(CO)C(O)C2(F)F)c(=O)n1` (stereo not shown) has an AUC of 58.3 ± 5.03 µM·h (athymic nude mouse, female, BxPC-3 xenograft, plasma; intravenous, 25 mg/kg gemcitabine equivalent).

For quick reference, copied from above:
For `CCC(=O)N(C)c1ccc(Cl)c(Cl)c1`, the AUC extrapolated was 3.96% (LC-MS/MS; mouse C57BL/6 female, plasma; intravenous, 2 mg/kg).
